Published values gathered from unrelated publications.
Numbered parts are unrelated; each lists some results of a single study. Changes are numbered by the printed parent chain.

Set 1 — target: CCND1, cyclin fold, Cln2 fusion (human); method: yeast growth competition, sequencing; medium: yeast; notes: weak parent motif; baseline: not given; reading: higher = stronger binding
Starting sequence: E2F8 docking peptide (human); FVPQRKLEVSTED
| Variant | normalised enrichment score |
| --- | --- |
| R5K V9L | 0.0978 |
| R5A | 0.00151 |
| L7A | -0.0531 |
| F1A | 0.648 |
| K6A | -0.101 |
| T11A | -0.407 |
| R5K V9F | 0.318 |
| Q4A | -0.807 |

Set 2 — method: universal PBM; molecule type: double-stranded DNA, one strand shown; medium: in vitro; concentration: not given; reading: higher = stronger binding
Target: Sal-like protein 4, full length isoform B (SALL4, Homo sapiens, UniProt Q9UJQ4-2, residues 1-616)
Notes: 8-mer, flanks averaged, mean of replicates
| Sequence | E-score |
| --- | --- |
| GAGGTACC | -0.292 |
| CCATGAGC | -0.272 |
| GAAATATC | 0.217 |
| AATTTGGA | 0.149 |
| ATTGTAAC | 0.212 |
| AGGTGGGG | -0.175 |
| TACCGGTA | -0.096 |
| CCTCTTCG | -0.116 |
| GACTTATA | 0.336 |
| AACTTAAT | 0.269 |
| CGATACTA | 0.2 |
| CAGAGCTC | -0.211 |
| AAGGATAA | 0.161 |
| CAAAAGAG | 0.0728 |
| AAACCCAG | -0.0699 |
| CCGCCGTC | -0.372 |
| CTTCTGCC | -0.16 |
| CCTTAGAG | -0.151 |
| AAGCAGAA | 0.0944 |
| ACTGCCGA | -0.166 |
| GCGTGAAC | -0.135 |
| AATAACAC | 0.204 |
| GTGTGAAA | 0.21 |
| CTGGCCTC | -0.278 |
| ACAGGTAA | 0.193 |

Set 3 — method: RNA Bind-n-Seq; molecule type: RNA; medium: in vitro; concentration: 365 nM; baseline: no-protein control; reading: higher = stronger binding
Target: RNA binding protein fox-1 homolog 2, RRM domain, GST-SBP tag (RBFOX2, Homo sapiens, UniProt O43251-10, residues 100-194)
Notes: natural RNA segment, single round, ends assumed
Shared flanks, not repeated: GGGAGUUCUACAGUCCGACGAUC … UGGAAUUCUCGGGUGCCAA
Residues (chain): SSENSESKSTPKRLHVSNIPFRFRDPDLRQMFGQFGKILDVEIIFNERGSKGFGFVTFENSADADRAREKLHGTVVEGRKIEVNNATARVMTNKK
| Sequence | RBNS enrichment (R) |
| --- | --- |
| UCUUAAAAACGUUUAAUGCCAGGCUGUGGUCAAAAUCUCUAUUUUAUUUGUUUCUCCAGUAUAUAGCUUUGUUUUAGCCUUUGUAAAUUACUUUUAUGAUAGUAGAAAUA | 0.963 |
| UCCAAAAUUAUUAAAUUUAUAAUUGUGCAAUUCUGUAAUUUCCCAAGGCAUAAGUAAUAUGACCCUACUGUCAGCUAGAUGUCUUAUCUUCAAAGAGAGUAUGCAUUAAU | 0.66 |
| AUGGCUCUGUGUGGAGUGCAGUAGACAUCAGGGACAGACAAAGGCUGUUAGAGAGUGCCAUGAGUGGAAAAUACCUGCACGAUGACUUCGCCCUGCCCUGCCCACCGGGG | 4.8 |
| AGCUAUGUUUCUGAUGCCAAUCACACUAGCACCAUUACAUGCUGGGCAGGUGCUGGGCAGCACAGACGCUGGAGACCUGUUUGCCACUGCUUGUCCCCCAUUCAUCUUUG | 0.508 |
| UGCACCUUGGGAAGACUUGCUUUGCAUUCUGCCUCAAGAGCUUCUCAUUGAUGUCCAUCUGGAGGCCAGGGGGGUCUUGGAACUACCAUUUUUUUUUCCUUUAGAUCAAC | 0.746 |
| AGACCUCGGAAAGAUGCCCCUGUUCCUUUGUUGCGGGUGGUUUUGGUAAGGCAGAGCCCUCUGCUGAGAAUGUAGUAUUGUUUUUCCCCUCUCCCUCCUGCUUUCUUUUU | 1.37 |
| UCUGCAGGGUGGGCCUGAUCCCAGAGUGGUGCUUACUGUGCUGACUGUGUACUUAUCUUCCCCAAGAGAAAAUGCUUCUUUUGAGCACACUGUACCUACCAUCUGCAUUG | 0.376 |
| UACAGGGUACCUUGUGCUCUGCCCCCAGACCCAUAGCCUUAGCAGUGGGCCAACUACAAUCCUCAUCUCCUAAAGUCAUCUACAGAUGGCAGGUGGAAGAAAGUGGUUCU | 0.152 |
| GCCACCUUGCCCACCGCAUGACCCCUUGUGCCAGUCGCGCAGCUGUGUGUGGUGUCGCGCCCUCUCCCCUUGGGGGCUGGGUGGGCACACCCUCCCCUCUUGUCUACUCA | 0.64 |
| ACAGCUGUGAGGGUGGCUAUUGAGUUCCUUCCAGUGUCUCAAGUCACAGGUGUGUGCAGUUGUGAAGAUCUCCAGGGAGACUCCAUCUUACCCUCCCCUUGUACUAAGAG | 0.337 |
| UGCAGAAGAGAACUGAUUGGUGGUCGAAGCACCAUCUUCACAGAUGUUCAGGGGCAGUGGGGGGCUCCAGGCACGGUCAAUGAAGGAAACAGUGCCUGUCCACCCACCCU | 0.429 |
| AUUACAGUGCUUUGGCUGGCUGAAGGUGGGAUUUGGGGACAGAAGUUACAUCAGAAUGUCAGAUGGAAGAAAAACAAGCUGGCCCUGGGCAAAAUGCUCAACUGUCAGCC | 2.79 |

Set 4 — method: aptamer microarray, sandwich; molecule type: DNA with 2'F-ANA; medium: in vitro; concentration: 200 nM; together with: Cy3 exosite-II aptamer, 400 nM; reading: higher = stronger binding; sequence: GGTTGGTGTGGTTGG
Target: Prothrombin, mature alpha-thrombin (F2, Homo sapiens, UniProt P00734)
Notes: whole 15-mer aptamer, many near background
| Modification | mean fluorescence intensity |
| --- | --- |
| 2'F-ANA at 1 2 3 5 6 13 14 | 47.3 a.u. |
| 2'F-ANA at 1 2 4 7 9 10 11 12 15 | 56.6 a.u. |
| 2'F-ANA at 2 3 4 5 8 9 13 14 15 | 50.1 a.u. |
| 2'F-ANA at 1 2 4 7 11 13 14 | 46.2 a.u. |
| 2'F-ANA at 1 2 3 4 9 10 13 14 15 | 52.3 a.u. |
| 2'F-ANA at 1 3 6 7 9 10 12 14 15 | 112 a.u. |
| 2'F-ANA at 1 4 6 8 9 10 11 14 15 | 45.3 a.u. |
| 2'F-ANA at 1 7 10 11 12 14 15 | 43 a.u. |
| 2'F-ANA at 4 5 6 10 12 13 14 15 | 48 a.u. |
| 2'F-ANA at 2 3 4 7 9 10 12 14 | 197 a.u. |
| 2'F-ANA at 1 3 6 7 8 9 10 11 12 13 14 | 64.2 a.u. |
| 2'F-ANA at 2 3 5 6 7 8 9 12 13 14 | 105 a.u. |
| 2'F-ANA at 1 2 5 6 9 11 12 | 91.7 a.u. |
| 2'F-ANA at 1 3 6 7 10 11 13 15 | 258 a.u. |
| 2'F-ANA at 1 3 4 5 6 10 11 12 13 14 15 | 60.4 a.u. |

Set 5 — method: protein-binding microarray; molecule type: hairpin DNA; medium: in vitro; concentration: not given; baseline: not given; reading: higher = stronger binding
Target: Microphthalmia-associated transcription factor, full length (MITF, Homo sapiens, UniProt O75030-10, residues 1-413)
Notes: whole hairpin DNA, median over replicate spots
| Sequence | median fluorescence |
| --- | --- |
| GAGGCCTAGCAGGTGCTGCCTCCTGGCAGCACCTGCTAGGCCTCACACTC (5mC at 33) | 5430 a.u. |
| GAGGCCTAGCACGTGATGCCTCCTGGCATCACGTGCTAGGCCTCACACTC | 30100 a.u. |
| GAGGCCTAGCACGTCCTGCCTCCTGGCAGGACGTGCTAGGCCTCACACTC | 5790 a.u. |
| GAGGCCTAGCATGTGCTGCCTCCTGGCAGCACATGCTAGGCCTCACACTC | 10300 a.u. |
| CACTTACGACGTGATTTTGGTCCTCCAAAATCACGTCGTAAGTGACACTC (5mC at 7) | 5900 a.u. |
| GAGGCCTAGCACTTGCTGCCTCCTGGCAGCAAGTGCTAGGCCTCACACTC | 4990 a.u. |
| CACTTAGCACGTGCTTTTGGTCCTCCAAAAGCACGTGCTAAGTGACACTC (5mC at 14) | 19500 a.u. |
| CACTTAGCACGTTATTTTGGTCCTCCAAAATAACGTGCTAAGTGACACTC | 5400 a.u. |
| CACTTAGCACGTGGTTTTGGTCCTCCAAAACCACGTGCTAAGTGACACTC (5mC at 31) | 24800 a.u. |

Set 6 — method: DHFR PCA, dose-response; medium: yeast; notes: Hill fit, mean, not affinity; together with: (+)-ABA, dose series; reading: lower = more sensitive
Target: ABI1, truncated, D143A, DHFR fusion (Arabidopsis thaliana, UniProt P49597)
Starting sequence: PYL1, truncated, DHFR fusion (Arabidopsis thaliana, UniProt Q8VZS8); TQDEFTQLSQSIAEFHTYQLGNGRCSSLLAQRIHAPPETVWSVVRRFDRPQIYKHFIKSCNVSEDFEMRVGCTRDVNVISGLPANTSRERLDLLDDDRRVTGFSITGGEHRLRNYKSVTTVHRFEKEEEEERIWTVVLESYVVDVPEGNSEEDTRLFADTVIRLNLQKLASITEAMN
| Variant | ABA EC50 |
| --- | --- |
| H122N | 80.7 µM |
| L156A | 1.24 µM |
| S150K | 34.5 µM |
| T154C | 2.98 µM |
| N77P | 995 µM |
| E4M | 1.7 µM |
| N61H | 1.17 µM |
| R98H | 11.3 µM |
| S9M | 8.49 µM |

Set 7 — method: protein-binding microarray; molecule type: double-stranded DNA, one strand shown; medium: in vitro; concentration: 940 nM top; notes: 60-bp whole probe; together with: salmon DNA 0.4 mg/ml; baseline: random background probes; reading: higher = stronger binding; shared flanks, not repeated: GCCTAGCAC … GTCTTGATTCGCTTGACGCTGCTG
Target: Interferon regulatory factor 5, full length, phosphomimetic (IRF5, Homo sapiens, UniProt Q13568-2, residues 1-514, S451D/S453D/S456D/S462D)
| Sequence | fitted relative affinity |
| --- | --- |
| TGTACTTTCTATCTCTGTTTGTGCTAG | 3.35 z-score |
| TATTTTTACATTATTACCTCGTGCTAG | 1.11 z-score |
| ATTTTTTTCTAATTGAAATGGTGCTAG | 0.414 z-score |
| TCAAGACTCTCTTGTCTGACTGTGCTA | -0.0305 z-score |
| GCCGGTTTCGACTATCGGGACGTGCTA | 9.19 z-score |
| TTAGATTTCAGTATCGACTAGTGCTAG | 3.6 z-score |
| GACGATCTCCGTATCGAGACGTGCTAG | 0.701 z-score |
| TTAGGTTTCATTCTCCTTTAGTGCTAG | 6.17 z-score |
| TTAGATATTAAACTGATAGGGTGCTAG | -0.263 z-score |
| GAAGGACTGGGACTGGGGACGTGCTAG | -0.539 z-score |
| TGGGATTTTGTCCTCCCCTCGTGCTAG | -0.144 z-score |
| GACGGTCTGGGGTTTCGGGACGTGCTA | 1.94 z-score |
| GACGGACTGGGTCTCGGGACGTGCTAG | -0.233 z-score |
| GGAAGTATGACTCTGCCTCTGTGCTAG | -0.374 z-score |
| TGAGGTTTCCTTCTCCTTTAGTGCTAG | 1.13 z-score |
| TCACATTTAGAAAATGGAACTGTGCTA | -0.0839 z-score |
| TAAAACATCATTTTTCCCTCGTGCTAG | 0.284 z-score |

Excerpt of the above (set 6):
| Variant | ABA EC50 |
| --- | --- |
| H122N | 80.7 µM |
| L156A | 1.24 µM |
| S150K | 34.5 µM |
| T154C | 2.98 µM |
| N77P | 995 µM |
| E4M | 1.7 µM |
| N61H | 1.17 µM |
| R98H | 11.3 µM |
| S9M | 8.49 µM |
